Assay results of several laboratories.
Every numbered part comes from another study and shows a few of its results, in no order. Substitutions count along the parent as printed.

Study 1 — method: RNA Bind-n-Seq; molecule type: RNA; sample: in vitro; tested at: 365 nM; baseline: no-protein control; direction: higher = stronger binding
Target: RNA binding protein fox-1 homolog 2, RRM domain, GST-SBP tag (RBFOX2, Homo sapiens, UniProt O43251-10, residues 100-194)
Notes: natural RNA segment, single round, ends assumed
Shared flanks, not repeated: GGGAGUUCUACAGUCCGACGAUC … UGGAAUUCUCGGGUGCCAA
Construct (chain): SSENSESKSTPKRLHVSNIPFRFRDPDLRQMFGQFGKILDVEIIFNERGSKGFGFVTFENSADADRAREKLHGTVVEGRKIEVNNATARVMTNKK
| Oligonucleotide | RBNS enrichment (R) |
| --- | --- |
| AAAUGGAGGACCUGGUGCAGUACCUUUCCUCUGAGGCUUGGAUUCCCGUUCUUGGGUGUAAUGUUGCUCCCUGAUCCCAUAUCCCUGUGAAAAUGACUUAGGAAAAAACG | 0.84 |
| GGGGGCCUUGAGUGCCUGGCCAGGUGGCCCUCCACGUGAGGUCAUGGUCACAGCAUGGAGGCCUUGAGAGCCUGGCCAGGUGGCCCUCCAUGUGAGGUUGUGGUCACAGC | 1.67 |
| UGAAUUUAUGCCUUUUGUAAACAUGAUAGGUAUAAAUGUCUUAUAAACAUUCUGGAGUAUGUAUAGCUUUAAUGAAUGAAAUUUAAUGGACCUGAUUAAAAUGAAGGGAU | 0.551 |
| GUGUGGUCUCCCCUUGUUUGGGGCUCAUACUGGGUAAGAGGCCCAGGAUAGCCAGCUUGCUUCUCUGUUAUGUUACCAUGCAUUUCUAAAACCACUCCAGCUGUUAAUCU | 1.61 |
| UCACACUUGUUGAAAAGUCUGUGAAGAACAUAGUUAAAGAUCUCCAACUUUGGAAAAUAUACAUGAUGUGAAACUGGGGUGCUAUGUUAAAAAUAAAUGUAUGAUAACUA | 0.403 |
| GAUGUACUAGCUAAAGUCUCUUUAUGUGUCAGUAUUAAGAGUAAUAUGUAGCCAGAUUACUUAAAUCUCAGAAUUACUAAGCAUGUGGCAUAAAUUUGGAGAAAAUAAUA | 19.2 |
| AGGUACAUGUUAAACCUUCCUCUGCCUUCUCAGCCACAUGCUUUUGGCCAUAAAUACUCAAUCUACCAGUUGGAAAGGGUAUCUAUUUCAAGAUGGGGUGGCGUUUUUCC | 0.281 |
| UAGUCUCCGUUUACUUUCUCUUCAUUGUUGAUAAGAGAAUGCCAAGCUGCGCGUUGUUCAGGCAGUUUACCCCUACUAGAGAAGAAAGGAAGAAACGCUAGAAGAAAACA | 7.76 |

Study 2 — target: tungstate, free oxyanion; method: microfluidic competitive inhibition; sample: in vitro, cell-free expressed; tested at: not given; direction: lower = stronger binding
Notes: derived from inhibition constants, unchanged parent 2230 nM
Starting sequence: PafA, mature enzyme, eGFP fusion (Elizabethkingia meningoseptica, UniProt Q9KJX5); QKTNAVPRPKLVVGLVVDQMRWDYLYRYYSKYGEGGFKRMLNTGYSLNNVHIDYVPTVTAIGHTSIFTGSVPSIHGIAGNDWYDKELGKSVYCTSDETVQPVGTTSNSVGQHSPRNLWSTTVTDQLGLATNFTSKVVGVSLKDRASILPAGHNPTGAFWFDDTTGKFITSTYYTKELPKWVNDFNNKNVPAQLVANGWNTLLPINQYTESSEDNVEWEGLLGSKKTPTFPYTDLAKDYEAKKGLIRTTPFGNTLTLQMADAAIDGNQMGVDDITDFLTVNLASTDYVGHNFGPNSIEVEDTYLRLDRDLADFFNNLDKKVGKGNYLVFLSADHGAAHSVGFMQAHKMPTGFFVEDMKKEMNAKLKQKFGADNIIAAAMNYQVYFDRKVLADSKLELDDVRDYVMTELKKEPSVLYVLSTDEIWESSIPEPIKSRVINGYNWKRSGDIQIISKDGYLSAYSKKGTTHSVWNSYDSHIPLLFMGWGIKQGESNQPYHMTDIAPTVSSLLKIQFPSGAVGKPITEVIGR
| Change | oxyanion analog dissociation constant |
| --- | --- |
| V16G | 1.17 µM |
| K187V | 2.44 µM |
| L25V | 2.66 µM |

Study 3 — read-out: binding; method: phage display NGS; molecule type: peptide; notes: panning round 2; baseline: input library
Target: UDP-N-acetylglucosamine--peptide N-acetylglucosaminyltransferase 110 kDa subunit (OGT, Homo sapiens, UniProt O15294)
UniProt O15294, sequence (whole entry, looked up): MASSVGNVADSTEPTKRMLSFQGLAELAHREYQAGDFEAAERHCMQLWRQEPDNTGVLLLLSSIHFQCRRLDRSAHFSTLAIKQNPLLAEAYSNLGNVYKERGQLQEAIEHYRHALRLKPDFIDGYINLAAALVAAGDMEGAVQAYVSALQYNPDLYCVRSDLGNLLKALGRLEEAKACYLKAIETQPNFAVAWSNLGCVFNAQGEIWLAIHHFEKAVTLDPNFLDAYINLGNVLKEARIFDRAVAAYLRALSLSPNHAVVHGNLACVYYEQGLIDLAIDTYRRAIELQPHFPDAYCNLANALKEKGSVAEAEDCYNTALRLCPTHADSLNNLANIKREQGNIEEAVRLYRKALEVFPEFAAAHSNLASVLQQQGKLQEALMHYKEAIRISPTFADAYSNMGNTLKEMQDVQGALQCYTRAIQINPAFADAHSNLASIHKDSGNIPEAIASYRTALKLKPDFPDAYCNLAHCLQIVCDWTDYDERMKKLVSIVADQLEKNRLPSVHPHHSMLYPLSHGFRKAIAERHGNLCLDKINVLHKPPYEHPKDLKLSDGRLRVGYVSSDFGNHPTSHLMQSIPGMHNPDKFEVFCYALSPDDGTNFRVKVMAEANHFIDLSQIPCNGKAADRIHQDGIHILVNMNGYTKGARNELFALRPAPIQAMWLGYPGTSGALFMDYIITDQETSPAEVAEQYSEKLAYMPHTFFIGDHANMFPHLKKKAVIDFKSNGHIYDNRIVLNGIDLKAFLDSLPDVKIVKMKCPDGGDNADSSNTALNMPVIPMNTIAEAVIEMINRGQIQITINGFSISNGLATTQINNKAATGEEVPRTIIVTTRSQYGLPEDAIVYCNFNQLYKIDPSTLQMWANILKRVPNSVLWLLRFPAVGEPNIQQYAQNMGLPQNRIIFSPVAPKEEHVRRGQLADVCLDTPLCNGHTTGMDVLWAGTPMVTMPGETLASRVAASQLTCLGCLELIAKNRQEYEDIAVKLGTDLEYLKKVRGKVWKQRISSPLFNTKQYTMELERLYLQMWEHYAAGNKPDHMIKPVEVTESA
| Molecule | minimum log2 enrichment ratio |
| --- | --- |
| GHHTHREYGYPSYQH | 3.17 |
| IHAGLEPKYQISYTY | 6.66 |
| RMDHTQRPLWHQHHN | 2.74 |
| ESIYKPRYQISIAYA | 4.62 |

Study 4 — target: CCNA1, cyclin fold, Cln2 fusion (human); method: yeast growth competition, sequencing; sample: yeast; notes: weak parent motif; baseline: not given; direction: higher = stronger binding
Starting sequence: viral docking peptide; KGVKRKLFAEDSS; partner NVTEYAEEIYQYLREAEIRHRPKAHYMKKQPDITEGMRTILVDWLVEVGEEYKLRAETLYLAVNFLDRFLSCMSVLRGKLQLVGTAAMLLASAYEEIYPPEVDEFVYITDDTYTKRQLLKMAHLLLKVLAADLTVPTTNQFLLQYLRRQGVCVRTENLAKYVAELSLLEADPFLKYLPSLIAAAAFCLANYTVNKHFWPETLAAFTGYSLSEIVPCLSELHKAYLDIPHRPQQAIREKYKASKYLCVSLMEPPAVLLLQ
| Change | normalised enrichment score |
| --- | --- |
| F8H | -0.0233 |
| D11F | 0.802 |
| K4P | 0.135 |
| F8Y | 0.435 |
| S12C | 1.15 |
| D11R | 0.471 |
| K6T | 0.909 |
| L7C | 0.199 |
| K6G | 1.02 |
| L7D | -0.0568 |
| V3E | 0.35 |
| R5V | 0.448 |
| L7A | -0.00337 |
| F8V | 0.274 |
| R5G | -0.472 |
| K4C | 0.79 |
| A9K | 0.629 |
| F8S | -0.358 |
| G2Q | 1.35 |
| S12D | 1.19 |
| K4S | 0.861 |
| A9T | 1.1 |
| S12Y | 0.803 |
| V3Y | 0.915 |
| K6N | 0.438 |

Study 5 — method: Spec-seq; molecule type: double-stranded DNA, one strand shown; sample: in vitro; tested at: not given; notes: whole probe, mean of replicates; baseline: not given; direction: lower = stronger binding; shared flanks, not repeated: GAGTCGTCTCGTCAGCAC … CCGTAGAGCACTCAGGTC
Target: POU, POU domain (Salpingoeca helianthica)
Target sequence (chain): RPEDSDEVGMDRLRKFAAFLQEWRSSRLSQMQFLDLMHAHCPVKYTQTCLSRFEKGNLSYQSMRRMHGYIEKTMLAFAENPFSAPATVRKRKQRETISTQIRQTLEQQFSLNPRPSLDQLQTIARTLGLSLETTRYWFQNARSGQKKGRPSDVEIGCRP
| Oligonucleotide | relative binding energy [ln ratio] |
| --- | --- |
| ATGCTGAA | 1.18 |
| ATTCATAT | 0.718 |
| ATGCCATT | 1.13 |
| ATAGCTAT | 0.798 |
| ATCTCCAT | 0.925 |
| ATGATCAT | 1.31 |
| ATAGCAAT | 1.03 |
| GCCATAAT | 0.522 |

Study 6 — method: RNA Bind-n-Seq; molecule type: RNA; sample: in vitro; tested at: 100 nM; baseline: input RNA pool; direction: higher = stronger binding
Target: RING finger protein unkempt homolog, zinc fingers 1-6, SBP tag (UNK, Homo sapiens, UniProt Q9C0B0, residues 30-357)
UniProt Q9C0B0, sequence (30-357, looked up): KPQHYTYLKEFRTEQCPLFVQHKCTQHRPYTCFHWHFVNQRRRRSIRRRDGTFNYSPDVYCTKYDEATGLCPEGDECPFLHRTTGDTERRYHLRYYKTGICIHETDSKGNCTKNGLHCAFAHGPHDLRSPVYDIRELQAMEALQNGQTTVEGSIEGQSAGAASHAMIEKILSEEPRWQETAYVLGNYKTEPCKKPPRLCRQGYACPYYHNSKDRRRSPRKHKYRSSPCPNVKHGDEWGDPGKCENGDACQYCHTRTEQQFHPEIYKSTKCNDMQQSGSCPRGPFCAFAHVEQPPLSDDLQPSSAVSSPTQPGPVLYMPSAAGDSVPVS
Notes: RNA with constant flanks, vertebrate orthologous sites, ends assumed
Shared flanks, not repeated: GGGAGUUCUACAGUCCGACGAUC … CAACAGAGGAUUGAGCAUCA
| Oligonucleotide | bound/input enrichment |
| --- | --- |
| ACGCUUUGAUAUUAAAUUUGACAUAAAAAGCAGCUGAUUGUAAGCACAACUCUUUCCUCCUAGCCAUUCAAAAAGGUAAAUGACAAAAAAGAAAACCUACUAGUCUUGAACAAACUGUCA | 0.453 ratio |
| UCAUAAUCACUAAUUGUAUUCUGAAUAAAGUGUAACAUUGUGUAGCCUUUUUGUAUAAAAUAGAGAAAUAGAAAUGGUCCAAUUAGUUUCCUUUUUAAUAUGCUUAAAAUAAGCAGGUGG | 1.72 ratio |
| UGGGGACAUACUCUGGGGAGCUGCCGGGCGAGUAACAUCGUUUGAUUUAUGACCUUGACUUACUACAUAGGCUUUUUUUUUAAUUUAAAAAUAUUGACUUCACAAAAGUUUAUUCUAAGG | 0.768 ratio |
| GGUGGUAGGACCCAGGCCCUGCCACUCAGUGGCCUGCUGGCUACCUUAGCCAGGCUGUUUUAGUUCCAUAUUUUUUUAUUUUAACAUUGCCCUUACUUCCUGUACUUCAGUCUCAGAUUU | 2.28 ratio |
| GGGGCCACAGCUAGAUAGGUUCCUCACUACAGUUUUAAGGGGGAAAAAAAAAGACCCAAAUAGAUUCCCUAUACAUCUGCCUGAAUUGGUCUGAGUUGGUUUCCUACCCUUUGUAUAUAC | 0.404 ratio |
| GGGACGUUUUGAUGUAAAAAUUGAAGUUAAGAGCUGAUCACAAGCACAAAUCUUUCCCACUAGCCAUUUAAUAAGUAAAAAAGAUACAAAAACAAAAACCUACUAGUCUUGAACAAACUG | 2.06 ratio |
| ACAUGCUCUCUGCAGGAAGCUGCUAGCCGCUUAGCAUUCUUUUGAUUAGUGAUAUUGAAAAGAAAGGUGUGUGGUGUUUUUUUUUUUUUAAUAUUGAGACUUAAUUAACUAGAAUUUAUU | 1.39 ratio |
| UAAGUAAAAUAUUGGAUGCAACAUAUAAAUGAUCUAAGGCAGUGAUUUCAGCUUUAGAUGUUAGUUUUAAGGUUAUUUACGUUUAUUUAAACUUUUGGAUUGGAUUAUUUGCUAUUGCUU | 0.411 ratio |

For quick reference, copied from above (study 4):
| Change | normalised enrichment score |
| --- | --- |
| V3E | 0.35 |
| L7D | -0.0568 |
| L7C | 0.199 |
| D11F | 0.802 |
